Experimental data collected from several papers.
Every numbered part comes from another study and shows a few of its results, in no order. Changes are numbered by the printed parent chain.

Study 1 — target: UBE2L6 UBC core domain (UniProt O14933); technique: yeast two-hybrid; matrix: yeast; notes: mostly zero background; relative to: not given; reading: higher = stronger interaction
B1: RNF135 RING domain (UniProt Q8IUD6); chain PVWLAEDDLGCIICQGLLDWPATLPCGHSFCRHCLEALWGARDARRWACPTCRQGAAQQPHLR
B2: PRKN RING domain (UniProt O60260); chain LIATNSRNITCITCTDVRSPVLVFQCNSRHVICLDCFHLYCVTRLNDRQFVHDPQLGYSLPCVAGCPNSLIKELHH
B3: TRIM22 RING domain (UniProt Q8IYM9); chain KEVKMSPQEGQKRDVCEHHGKKLQIFCKEDGKVICWVCELSQEHQGHQTFRINEVVKECQEK
Target sequence (chain): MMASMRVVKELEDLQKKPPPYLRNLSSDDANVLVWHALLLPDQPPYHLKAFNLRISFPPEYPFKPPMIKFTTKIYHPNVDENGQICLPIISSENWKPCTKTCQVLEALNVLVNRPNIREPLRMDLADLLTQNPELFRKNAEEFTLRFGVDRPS
Under “lacZ reporter activity”, `ALDRLEKLLRCSRCTNILREPVCLGGCEHIFCSNCVSDCIGTGCPVCYTPAWIQDLKI (BARD1 RING domain (UniProt Q99728))` is recorded as 0.
For `B1 (RNF135 RING domain)`, “lacZ reporter activity” read 0.
For `B2 (PRKN RING domain)`, “lacZ reporter activity” read 0.
`NTAPSLTVPECAICLQTCVHPVSLPCKHVFCYLCVKGASWLGKRCALCRQEIPEDFLDK (RNF146 RING domain (UniProt Q9NTX7))`: “lacZ reporter activity” 0.
For `KLWDINAHITCRLCSGYLIDATTVTECLHTFCRSCLVKYLEENNTCPTCRIVIHQSHPLQ (PCGF3 RING domain (UniProt Q3KNV8))`, “lacZ reporter activity” read 0.
Under “lacZ reporter activity”, `B3 (TRIM22 RING domain)` is recorded as 0.
For `QLRRLQEERTCKVCLDRAVSIVFVPCGHLVCAECAPGLQLCPICRAPVRSRVRTF (BIRC7 RING domain (UniProt Q96CA5))`, “lacZ reporter activity” read 0.
Under “lacZ reporter activity”, `KITELNPHLMCVLCGGYFIDATTIIECLHSFCKTCIVRYLETSKYCPICDVQVHKTRPLL (BMI1 RING domain (UniProt P35226))` is recorded as 0.

Study 2 — target: CCND1, cyclin fold, Cln2 fusion (human); technique: yeast growth competition, sequencing; matrix: yeast; notes: strong parent motif; relative to: not given; reading: higher = stronger binding
Starting sequence: CDKN1A docking peptide (human); SKACRRLFGPVDS
`L7C`: “normalised enrichment score” 0.218.
Under “normalised enrichment score”, `F8I` is recorded as 0.213.
Under “normalised enrichment score”, `R5M` is recorded as 0.547.
Under “normalised enrichment score”, `D12V` is recorded as 1.56.
For `R6N`, “normalised enrichment score” read 1.54.
`K2A`: “normalised enrichment score” 2.21.
`A3K` — result for “normalised enrichment score”: 0.488.
For `D12Q`, “normalised enrichment score” read 1.61.
`V11Q`: “normalised enrichment score” 3.6.
For `D12Y`, “normalised enrichment score” read 1.39.
`V11F`: “normalised enrichment score” 2.99.
`C4N`: “normalised enrichment score” 0.497.
`R6K` — result for “normalised enrichment score”: 2.81.
Under “normalised enrichment score”, `V11D` is recorded as 5.78.
`R6G`: “normalised enrichment score” 0.213.
Under “normalised enrichment score”, `C4P` is recorded as -0.0565.
Under “normalised enrichment score”, `G9L` is recorded as 2.33.
`F8V`: “normalised enrichment score” 0.214.
`V11A` — result for “normalised enrichment score”: 3.72.
For `L7T`, “normalised enrichment score” read 0.2.
`G9T` — result for “normalised enrichment score”: 2.65.
For `G9D`, “normalised enrichment score” read 3.75.
For `P10T`, “normalised enrichment score” read 1.99.

Study 3 — technique: EMSA with sequencing; form: double-stranded DNA, one strand shown; matrix: in vitro; tested at: 10 and 20 nM; relative to: negative control set to 0; reading: higher = stronger binding
Target: Hepatocyte nuclear factor 3-alpha (Foxa1, Mus musculus, UniProt P35582, residues 1-468, full length assumed)
Chain of UniProt P35582 (whole entry, looked up): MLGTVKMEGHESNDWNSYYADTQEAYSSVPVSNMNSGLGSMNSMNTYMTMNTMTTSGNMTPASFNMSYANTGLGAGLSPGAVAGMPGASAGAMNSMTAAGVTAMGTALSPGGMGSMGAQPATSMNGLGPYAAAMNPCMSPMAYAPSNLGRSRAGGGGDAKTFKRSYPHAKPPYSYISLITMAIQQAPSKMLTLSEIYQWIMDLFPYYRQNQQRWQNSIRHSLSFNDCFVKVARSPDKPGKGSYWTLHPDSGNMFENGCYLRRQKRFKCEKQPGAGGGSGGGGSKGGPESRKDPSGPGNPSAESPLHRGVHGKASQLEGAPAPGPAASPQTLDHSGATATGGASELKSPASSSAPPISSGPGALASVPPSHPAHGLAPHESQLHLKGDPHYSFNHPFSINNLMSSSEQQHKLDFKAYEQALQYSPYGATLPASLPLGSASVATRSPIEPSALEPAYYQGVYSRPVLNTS
Notes: whole designed probe, mean of two concentrations, ends assumed
For `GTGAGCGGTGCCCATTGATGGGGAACCTCATTCCTTGCTTCCGCCAATAATCTGACTAGTAAAGAAGTCACTGCATGCCACAAATTGTCAGTGCTGACTTCCTCAACAAGGAAGTTATTTATTTACTTATTTAATATATATGCAAAGAGTGACTCAGTTCCATCTTGAGAATACCAACTCCTGATGCCAACTGATTGTCAGTCATGGCTACAACAGGAGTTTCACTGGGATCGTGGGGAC`, “normalised bound fraction” read 0.472 ratio.
`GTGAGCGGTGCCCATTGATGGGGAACATCTTCCCCCTCTTCCTTGCCCCACCAGCTCACCTTCCCGGGTTATTTGCAGATAGGAAAATAAATAAAGCCGGCATTCGTTAACCCTCTTCACGCGCATACTGCACATTGGTCTGGATGAATCATGGTCCTTTGGCGACGCCAGGCTCCGGGAGAGCAAAGCACCGTGTCAGGGCCATGATCCGGGGTGGCCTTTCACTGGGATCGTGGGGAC` — result for “normalised bound fraction”: 0.34 ratio.
For `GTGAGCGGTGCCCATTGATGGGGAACCCACCGCGCCTGGCCGAGAGCTCAGCGTTTTAAAACCTATAGTAGGCTGTTTTTTTCACGTCAATGTCAAATGTTTGTGTCTGTTTTTCAAAGGTAAATAAGAAGTCTGTTGTCTGTTGCAGTCTGAACTCTAGAGTGTAAGATCTGACATATCAAAGGCAAGAGTAAAAAGAGAAGGTGGTGCATGCATGTATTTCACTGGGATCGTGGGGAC`, “normalised bound fraction” read 0.236 ratio.
Under “normalised bound fraction”, `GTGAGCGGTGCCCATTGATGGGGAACCTTGCTGATTGCTAGCACAGCAGTCTGAGATCAAACTGCAAGGCGGCAGCAAGGCTGGGGGAGGGGCGCCCGCCATTGCCCAGGCTTGCTTAGGTAAACAAAGCAGCCTGGAAGCTCGTACTGGGTGGAGCCCACGACGCTCAAGGAGGCCTGCCTGCCTCTGTAGGCTCCACCTCTGGGGGCAGGGCACAGATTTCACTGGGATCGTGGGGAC` is recorded as 0.533 ratio.
`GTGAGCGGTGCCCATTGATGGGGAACGGTGCCTCCCCAGCCACCTCCGCCCCTGCCTGCTTCTGATTCAACAGCGCCGACCCTACAAAAACAGGGCCCGCCCATCTCCGAGGATGGCAAAGTCAACAGTGCGGGCACGCGGGCGGCCAGTCCCCGGCGGCCCGCGTGCGTCACGGGGGCGGATGCAGAGGACCAGGAAGTTCGCCGACGACGCGCCCGCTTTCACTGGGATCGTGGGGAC` — result for “normalised bound fraction”: 0.245 ratio.

Study 4 — technique: protein-binding microarray; form: double-stranded DNA, one strand shown; matrix: in vitro; tested at: 940 nM top; notes: 60-bp whole probe; with: salmon DNA 0.4 mg/ml; relative to: random background probes; reading: higher = stronger binding; all sequences stand within: GCCTAGCAC … GTCTTGATTCGCTTGACGCTGCTG
Target: Interferon regulatory factor 5, full length, phosphomimetic (IRF5, Homo sapiens, UniProt Q13568-2, residues 1-514, S451D/S453D/S456D/S462D)
`TCTCCTCCAGGTTCTCTGACAGTGCTA` — result for “fitted relative affinity”: 0.774 z-score.
For `TTAGGTTTCGACTATCGGTCAGTGCTA`, “fitted relative affinity” read 9.42 z-score.
For `TTAGATCTCAATATCGATTAGTGCTAG`, “fitted relative affinity” read 0.661 z-score.
Under “fitted relative affinity”, `TTAGTTTTCGGGACTGGATTAGTGCTA` is recorded as 2.01 z-score.
Under “fitted relative affinity”, `GACCGTATCGACTATCGGGACGTGCTA` is recorded as 2.53 z-score.
For `TTAGATCTGGGGTTTCGATTAGTGCTA`, “fitted relative affinity” read 5.13 z-score.
Under “fitted relative affinity”, `TTAGGTATCCTTTTCCTTTCGTGCTAG` is recorded as 1.04 z-score.
For `GACGAAGTGGGGACTGGAGACGTGCTA`, “fitted relative affinity” read -0.126 z-score.
For `TTAGATATCAGCATCGATTAGTGCTAG`, “fitted relative affinity” read -0.0642 z-score.
`GACGAAGTGGGGTTTCGAGACGTGCTA` — result for “fitted relative affinity”: 2 z-score.
`GACGGTTTCGACATTCGGGACGTGCTA` — result for “fitted relative affinity”: 6.57 z-score.
`GACGAACTGGGGTATCGTGACGTGCTA` — result for “fitted relative affinity”: 0.0795 z-score.
For `TTAGGTATCAACACTGGGTTAGTGCTA`, “fitted relative affinity” read 1.34 z-score.
`GACGAACTGGGGTTTCGAGCCGTGCTA` — result for “fitted relative affinity”: 1.37 z-score.
Under “fitted relative affinity”, `TCATATTTATAAATTATACTGTGCTAG` is recorded as 0.54 z-score.
`ATAGGTTTCGGTTTCGGTTAGTGCTAG` — result for “fitted relative affinity”: 15.9 z-score.
`GACGGTTGCCTTTCCCTGACGTGCTAG`: “fitted relative affinity” 0.365 z-score.
Under “fitted relative affinity”, `ACCACTCTTGCTTTTTAGATGTGCTAG` is recorded as 1.14 z-score.
Under “fitted relative affinity”, `TTACAACTGAGTCTCGATTAGTGCTAG` is recorded as 3.25 z-score.

A few entries again (study 2):
For `D12Q`, “normalised enrichment score” read 1.61.
`V11Q`: “normalised enrichment score” 3.6.
For `D12Y`, “normalised enrichment score” read 1.39.
`V11F`: “normalised enrichment score” 2.99.
`C4N`: “normalised enrichment score” 0.497.
`R6K` — result for “normalised enrichment score”: 2.81.
Under “normalised enrichment score”, `V11D` is recorded as 5.78.
`R6G`: “normalised enrichment score” 0.213.
Under “normalised enrichment score”, `C4P` is recorded as -0.0565.
